Results from different studies.
Protocols differ between the studies behind these lines. Several values in a cell are separate wells, animals, samples, runs or records.
PTGS2: Prostaglandin G/H synthase 2 (PTGS2, Homo sapiens, UniProt P35354)
Chain of UniProt P35354 (whole entry, looked up): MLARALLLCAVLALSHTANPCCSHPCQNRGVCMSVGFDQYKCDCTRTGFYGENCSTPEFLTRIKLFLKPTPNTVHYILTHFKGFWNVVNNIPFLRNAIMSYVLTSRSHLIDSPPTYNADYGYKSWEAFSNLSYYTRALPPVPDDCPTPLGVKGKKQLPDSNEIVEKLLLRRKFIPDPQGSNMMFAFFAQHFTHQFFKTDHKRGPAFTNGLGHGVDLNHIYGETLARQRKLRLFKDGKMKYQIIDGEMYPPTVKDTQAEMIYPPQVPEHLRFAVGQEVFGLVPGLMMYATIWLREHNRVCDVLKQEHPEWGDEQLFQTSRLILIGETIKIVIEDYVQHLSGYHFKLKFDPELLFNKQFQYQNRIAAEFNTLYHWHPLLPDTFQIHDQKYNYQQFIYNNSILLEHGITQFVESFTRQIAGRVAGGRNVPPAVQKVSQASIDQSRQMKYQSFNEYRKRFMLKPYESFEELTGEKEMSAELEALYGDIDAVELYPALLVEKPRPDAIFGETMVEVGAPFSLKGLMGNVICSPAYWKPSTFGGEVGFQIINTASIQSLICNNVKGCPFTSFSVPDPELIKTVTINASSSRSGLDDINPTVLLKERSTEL
USP5: Ubiquitin carboxyl-terminal hydrolase 5 (USP5, Homo sapiens, UniProt P45974)
Chain of UniProt P45974 (whole entry, looked up): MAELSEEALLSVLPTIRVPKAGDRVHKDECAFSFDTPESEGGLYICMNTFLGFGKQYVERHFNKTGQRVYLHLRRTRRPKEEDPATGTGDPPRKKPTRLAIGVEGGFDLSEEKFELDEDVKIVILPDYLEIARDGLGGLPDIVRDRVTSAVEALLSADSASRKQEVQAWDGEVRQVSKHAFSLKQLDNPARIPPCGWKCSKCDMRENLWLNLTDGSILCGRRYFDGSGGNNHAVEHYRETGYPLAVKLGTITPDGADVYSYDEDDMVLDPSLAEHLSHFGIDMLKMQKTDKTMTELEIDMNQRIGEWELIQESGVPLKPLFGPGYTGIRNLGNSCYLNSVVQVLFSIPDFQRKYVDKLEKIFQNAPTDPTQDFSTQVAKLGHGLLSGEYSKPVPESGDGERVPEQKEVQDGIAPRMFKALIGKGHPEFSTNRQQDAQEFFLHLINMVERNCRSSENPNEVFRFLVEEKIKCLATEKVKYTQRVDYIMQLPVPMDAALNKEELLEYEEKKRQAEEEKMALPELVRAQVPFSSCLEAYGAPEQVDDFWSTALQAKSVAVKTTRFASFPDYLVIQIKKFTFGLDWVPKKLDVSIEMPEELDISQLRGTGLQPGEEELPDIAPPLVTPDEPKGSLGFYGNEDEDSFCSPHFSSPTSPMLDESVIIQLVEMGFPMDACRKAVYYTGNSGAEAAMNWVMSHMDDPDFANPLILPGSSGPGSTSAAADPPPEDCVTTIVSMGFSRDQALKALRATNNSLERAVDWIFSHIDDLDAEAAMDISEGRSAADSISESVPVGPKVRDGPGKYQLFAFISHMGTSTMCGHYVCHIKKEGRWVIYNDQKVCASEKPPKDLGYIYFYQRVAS
Coelenterazine h 2-monooxygenase: Coelenterazine h 2-monooxygenase (Renilla reniformis, UniProt P27652)
Chain of UniProt P27652 (whole entry, looked up): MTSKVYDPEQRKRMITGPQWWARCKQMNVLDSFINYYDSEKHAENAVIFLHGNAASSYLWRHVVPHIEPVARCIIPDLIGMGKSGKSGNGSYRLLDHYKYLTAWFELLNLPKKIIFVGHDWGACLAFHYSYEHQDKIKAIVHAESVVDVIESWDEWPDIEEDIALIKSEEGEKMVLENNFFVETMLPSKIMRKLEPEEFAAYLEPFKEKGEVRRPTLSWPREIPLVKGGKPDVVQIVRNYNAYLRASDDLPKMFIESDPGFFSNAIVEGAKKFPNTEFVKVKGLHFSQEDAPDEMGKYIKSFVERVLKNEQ
Protein-S-isoprenylcysteine O-methyltransferase: Protein-S-isoprenylcysteine O-methyltransferase (Homo sapiens, UniProt O60725)
Chain of UniProt O60725 (whole entry, looked up): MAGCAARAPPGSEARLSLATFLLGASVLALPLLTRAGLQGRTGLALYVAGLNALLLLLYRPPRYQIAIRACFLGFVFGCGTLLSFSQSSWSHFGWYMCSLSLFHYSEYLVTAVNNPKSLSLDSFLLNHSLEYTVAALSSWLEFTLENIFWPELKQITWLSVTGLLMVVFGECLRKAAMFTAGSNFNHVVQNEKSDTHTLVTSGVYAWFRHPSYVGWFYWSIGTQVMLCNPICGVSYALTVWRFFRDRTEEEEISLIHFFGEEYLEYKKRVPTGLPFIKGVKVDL
Chain of UniProt Q02127 (whole entry, looked up): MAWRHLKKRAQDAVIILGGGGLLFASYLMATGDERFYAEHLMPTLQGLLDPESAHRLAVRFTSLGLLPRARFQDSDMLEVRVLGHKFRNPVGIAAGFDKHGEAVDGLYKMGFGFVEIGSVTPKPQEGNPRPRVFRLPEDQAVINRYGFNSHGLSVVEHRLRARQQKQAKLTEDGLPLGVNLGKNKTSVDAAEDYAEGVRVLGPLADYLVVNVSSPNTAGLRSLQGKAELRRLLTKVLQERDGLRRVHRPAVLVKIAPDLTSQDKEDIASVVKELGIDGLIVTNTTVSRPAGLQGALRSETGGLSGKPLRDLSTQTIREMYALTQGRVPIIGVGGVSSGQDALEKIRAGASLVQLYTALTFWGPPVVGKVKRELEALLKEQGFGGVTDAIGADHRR
Chain of UniProt Q8NET8 (whole entry, looked up): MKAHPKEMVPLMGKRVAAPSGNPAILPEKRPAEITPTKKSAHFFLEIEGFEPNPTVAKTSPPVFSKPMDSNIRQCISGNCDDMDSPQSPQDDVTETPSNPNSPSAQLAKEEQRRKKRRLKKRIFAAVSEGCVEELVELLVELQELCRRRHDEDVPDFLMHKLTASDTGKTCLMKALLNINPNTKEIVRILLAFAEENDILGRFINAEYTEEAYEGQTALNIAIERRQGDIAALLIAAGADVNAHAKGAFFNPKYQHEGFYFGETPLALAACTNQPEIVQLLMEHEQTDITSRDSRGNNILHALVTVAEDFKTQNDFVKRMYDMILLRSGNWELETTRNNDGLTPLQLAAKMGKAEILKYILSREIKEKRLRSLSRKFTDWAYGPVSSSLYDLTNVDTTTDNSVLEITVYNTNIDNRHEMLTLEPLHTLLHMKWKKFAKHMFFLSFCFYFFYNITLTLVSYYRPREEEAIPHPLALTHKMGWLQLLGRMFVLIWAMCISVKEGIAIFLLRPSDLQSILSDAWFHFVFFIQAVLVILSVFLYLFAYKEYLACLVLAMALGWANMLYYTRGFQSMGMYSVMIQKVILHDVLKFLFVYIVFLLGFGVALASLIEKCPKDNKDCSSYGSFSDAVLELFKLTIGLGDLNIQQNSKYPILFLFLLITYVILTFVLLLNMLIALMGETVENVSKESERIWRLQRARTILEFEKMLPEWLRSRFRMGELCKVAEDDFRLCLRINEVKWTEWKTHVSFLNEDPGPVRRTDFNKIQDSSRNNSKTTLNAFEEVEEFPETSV
Chain of UniProt Q86SG6 (whole entry, looked up): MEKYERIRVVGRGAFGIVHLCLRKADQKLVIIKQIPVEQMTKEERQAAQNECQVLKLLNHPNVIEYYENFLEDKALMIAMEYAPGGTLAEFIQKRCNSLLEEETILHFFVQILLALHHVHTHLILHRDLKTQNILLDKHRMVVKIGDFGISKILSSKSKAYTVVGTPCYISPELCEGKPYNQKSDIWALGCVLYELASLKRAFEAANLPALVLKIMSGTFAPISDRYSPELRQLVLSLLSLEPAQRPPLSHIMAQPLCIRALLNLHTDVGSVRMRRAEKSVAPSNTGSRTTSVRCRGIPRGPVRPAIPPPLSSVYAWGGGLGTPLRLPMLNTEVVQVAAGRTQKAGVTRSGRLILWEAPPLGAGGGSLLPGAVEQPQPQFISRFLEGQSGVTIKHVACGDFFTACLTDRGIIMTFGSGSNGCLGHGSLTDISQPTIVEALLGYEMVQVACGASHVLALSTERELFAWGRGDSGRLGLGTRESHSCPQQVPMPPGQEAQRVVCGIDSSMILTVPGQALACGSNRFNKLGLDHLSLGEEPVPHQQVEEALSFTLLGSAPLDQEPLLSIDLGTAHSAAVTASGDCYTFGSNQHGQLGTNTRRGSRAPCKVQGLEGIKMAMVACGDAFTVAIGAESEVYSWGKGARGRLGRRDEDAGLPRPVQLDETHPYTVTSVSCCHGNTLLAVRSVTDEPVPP
Chain of UniProt P11838 (whole entry, looked up): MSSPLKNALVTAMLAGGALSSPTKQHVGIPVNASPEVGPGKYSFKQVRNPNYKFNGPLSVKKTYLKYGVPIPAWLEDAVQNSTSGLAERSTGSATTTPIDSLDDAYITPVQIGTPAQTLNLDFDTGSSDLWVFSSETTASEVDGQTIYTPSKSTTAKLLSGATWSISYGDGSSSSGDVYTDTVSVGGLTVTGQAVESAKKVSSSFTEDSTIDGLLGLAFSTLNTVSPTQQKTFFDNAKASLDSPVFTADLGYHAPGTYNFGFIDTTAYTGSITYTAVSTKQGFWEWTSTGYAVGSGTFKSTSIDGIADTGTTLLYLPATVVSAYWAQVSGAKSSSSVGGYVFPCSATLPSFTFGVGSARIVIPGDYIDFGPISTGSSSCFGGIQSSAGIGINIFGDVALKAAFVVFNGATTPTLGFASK
Chain of UniProt Q9H5I1 (whole entry, looked up): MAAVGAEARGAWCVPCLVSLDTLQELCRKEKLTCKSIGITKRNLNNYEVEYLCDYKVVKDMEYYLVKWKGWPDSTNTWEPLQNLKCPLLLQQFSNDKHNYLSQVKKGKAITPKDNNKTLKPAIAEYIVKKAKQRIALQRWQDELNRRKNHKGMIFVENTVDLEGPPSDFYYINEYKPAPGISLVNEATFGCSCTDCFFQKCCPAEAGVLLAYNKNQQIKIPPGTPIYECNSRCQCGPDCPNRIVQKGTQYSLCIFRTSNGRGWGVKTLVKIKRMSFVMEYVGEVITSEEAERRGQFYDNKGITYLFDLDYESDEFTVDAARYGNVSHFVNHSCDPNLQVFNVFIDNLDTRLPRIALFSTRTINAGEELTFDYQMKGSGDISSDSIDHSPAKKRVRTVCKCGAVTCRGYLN

Structure (SMILES)	target or system	test	test system	conditions	measurement	result
O=C1c2sc(-c3ccc(N4CCC(CO)CC4)nc3F)nc2CCN1c1cccnc1	sodium channel site 2	radioligand binding		1 µM, with: antagonist radioligand	inhibition	-14%
CS(=O)(=O)c1ccc(-n2cc(C=NN=c3[nH]c(-c4ccc([N+](=O)[O-])cc4)cs3)c(-c3ccc(Br)cc3)n2)cc1	PTGS2	enzyme activity		100 µM	inhibition	88.3%
CC(=O)C12NC(C)(C)CC1(C)C(=O)C1=C2c2c(c3c4n2C(C)(C)CC2=C4C4(CC(C)(C)NC(C)(C4)C2=O)CC3(C)C)C(=O)C(C)(C)N1 (single isomer, unassigned; (+))	TRPV3 (Homo sapiens, UniProt Q8NET8)	ion current, inhibitor, patch clamp	HEK-293T	50 µM	inhibition	11.4%
CC1(C)CC(=O)C(=NNc2ccc3c(c2)OCO3)C(=O)C1	USP5	enzyme activity, inhibitor		17 µM	inhibition	6%
COc1ccc(C#CC2=C[C@H]3C[C@@]4(OC(=O)C=C24)[C@H]2CC[C@H](C(OC)OC)N32)cc1	Androgen receptor (AR, Homo sapiens, UniProt P10275)	radioligand binding, radioligand displacement		10 µM	inhibition	53%
O=C1CO[C@H](CNC(=O)C2(c3ccc(Cl)cc3)CC2)CN1C1Cc2ccccc2C1	CXCR3 (Homo sapiens, UniProt P49682)	β-arrestin recruitment, antagonist		1 µM	inhibition	-4%
N#CC(=Cc1cccs1)C(N)=C(C#N)C#N	USP5	enzyme activity, inhibitor		17 µM	inhibition	6%
C[Si](C)(C)C[C@@H](CN)CC(=O)O	P2Y receptor, rat	binding, radioligand binding		75 µM, with: labelled ATP analogue	inhibition	18%
COc1cccc(-c2cc(F)c(NC(=O)Nc3sc(C)nc3C(=O)O)c(F)c2)c1	DHODH (Homo sapiens, UniProt Q02127)	enzyme activity, DCIP colorimetric		5.00 µM	inhibition	47.4% and 46.9% and 47.8%
CCn1cc(C(=O)O)c(=O)c2c(N)c(F)c(NC3CCCCC3)cc21	NEK8 (Homo sapiens, UniProt Q86SG6)	kinase activity		0.1 µM, with: ATP at Km	inhibition	-20.5%
Cc1ccc2c(c1)sc(-c1ccc(N(C)C)cc1)[n+]2C.[I-]	Coelenterazine h 2-monooxygenase	luciferase activity, inhibitor, luminescence counter-screen		concentration not given, test 2	inhibition	83.2% and 64.4%
On1ccc2c(Br)cncc21	USP5	enzyme activity, inhibitor		17 µM	inhibition	77%
C[Si]1(C[C@H](CN)CC(=O)O)CCCC1	NMDA receptor, rat	binding, radioligand binding		70 µM, with: [3H]TCP	inhibition	-1%
CC(C)CC(=O)Nc1ccc([C@H]2[C@@H](F)[C@@H](F)C[C@@H](F)[C@H]2F)cc1		liver microsome stability	human liver microsomes	1 µM, without NADPH	hepatic clearance	3.9 mL/min/kg
CC=C(C)C(=O)OC1CC2C(C=C(C)C3C(OC(C)=O)CC(=O)C13C)OC(=O)C2C (centres unmarked)	PTGS2	enzyme activity, inhibitor		0.98 µg/mL	inhibition	0%
Cc1ccc(-c2nn(-c3ccc(S(C)(=O)=O)cc3)cc2C=NN=c2[nH]c(-c3ccc(Br)cc3)cs2)cc1 (mixture of isomers)	PTGS2	enzyme activity		0.01 µM	inhibition	15.7%
CC1(C)C=C2C(=NN(c3ccccc3)C(N)=C2C#N)CO1	USP5	enzyme activity, inhibitor		17 µM	inhibition	6%
CCCCCCCCN(CCC(=O)Nc1ccccc1)C(=O)c1ccco1	Protein-S-isoprenylcysteine O-methyltransferase	enzyme activity	Sf9 membranes	50 µM, with: [3H]S-adenosylmethionine, biotin-farnesyl-L-cysteine	inhibition	49%
CN(C)C/C=C/C(=O)Nc1ccc2nc(NCCCCCN(C)C)nc(NCCCCCCN(C)C)c2c1	SUV39H2 (Homo sapiens, UniProt Q9H5I1)	enzyme activity, inhibitor, radiometric		50 µM	inhibition	19%

Structure (SMILES)	target or system	test	test system	conditions	measurement	result
CC1CCC(C(C)C)C(OC(=O)Cn2c(-c3ccc(Br)cc3)[n+](C)c3ccccc32)C1.[Cl-] (centres unmarked)	Coelenterazine h 2-monooxygenase	luciferase activity, inhibitor, luminescence counter-screen		concentration not given, test 3 new dilution	inhibition	109% and 86.6%
O=C1c2sc(-c3ccc(N4CCC(F)C4)nc3F)nc2CCN1c1cccnc1 (centres unmarked)	TNF-alpha (human)	radioligand binding, BioPrint binding panel		1 µM, with: agonist radioligand	inhibition	-1%
CO[C@@H]1OC[C@@H](O)[C@H](O)[C@H]1O	PTGS2	enzyme activity, inhibitor		31.25 µg/mL	inhibition	93.2%
CS(=O)(=O)c1ccc(-n2cc(C=NN=c3[nH]c(-c4ccc([N+](=O)[O-])cc4)cs3)c(-c3ccc([N+](=O)[O-])cc3)n2)cc1	PTGS2	enzyme activity		0.01 µM	inhibition	7.84%
CC(=O)c1ccc(NC(=O)CN2CCC(c3nc(-c4cccc(F)c4)no3)CC2)cc1	DRD3 (Homo sapiens, UniProt P35462)	enzyme activity, inhibitor		10 µM	inhibition	16.7%
COc1ccc(C2CC(Nc3ccc(-c4ccc(NC5=NOC(c6ccc(OC)cc6)C5)cc4)cc3)=NO2)cc1 (centres unmarked)	cyclooxygenase, rabbit		distal colon mucosa microsomes	10 µM	inhibition	79%
Cc1cc(N)n(N)c(=O)c1	USP5	enzyme activity, inhibitor		17 µM	inhibition	26%
NNC1(c2nnnn2CCc2c[nH]c3ccccc23)CCN(C(=O)OCc2ccccc2)CC1	Endothiapepsin (EAPA, Cryphonectria parasitica, UniProt P11838)	enzyme activity, inhibitor		200 µM	inhibition	89.5%
Br.CCCCCCCCCn1c2c(c(=N)c3c1CCC3)CCCC2	Coelenterazine h 2-monooxygenase	luciferase activity, inhibitor, luminescence counter-screen		concentration not given, test 1	inhibition	66.8% and 54.3%
CS(=O)(=O)c1ccc(-n2cc(C=NN=c3[nH]c(-c4ccc(Br)cc4)cs3)c(-c3ccc(Br)cc3)n2)cc1	PTGS2	enzyme activity		0.1 µM	inhibition	35.4%
O=C(CSc1nnc2c(n1)CCCC2)c1ccc(N2CCCC2=O)cc1	USP5	enzyme activity, inhibitor		17 µM	inhibition	85%
CCCCCCCCN(CCC(=O)Nc1ccccc1)C(=O)c1cc[nH]c1	Protein-S-isoprenylcysteine O-methyltransferase	enzyme activity	Sf9 membranes	50 µM, with: [3H]S-adenosylmethionine, biotin-farnesyl-L-cysteine	inhibition	81%
Nc1n[nH]c2cc(O)nc(O)c12	USP5	enzyme activity, inhibitor		17 µM	inhibition	97%
CC(C)Oc1ccc(CNCCC2(C(C)C)CCOC(C)(C)C2)cc1 (centres unmarked)	Coelenterazine h 2-monooxygenase	luciferase activity, inhibitor, luminescence counter-screen		concentration not given, test 2	inhibition	105% and 126%
Cn1nc(-c2ccc(F)cc2)nc2c(=O)n(C)c(=O)nc1-2	USP5	enzyme activity, inhibitor		17 µM	inhibition	87%
CCCCCCCCN(CCC(=O)Nc1ccccc1)C(=O)c1ccccc1C#N	Protein-S-isoprenylcysteine O-methyltransferase	enzyme activity	Sf9 membranes	50 µM, with: [3H]S-adenosylmethionine, biotin-farnesyl-L-cysteine	inhibition	47%
Cc1[nH]nc2c1N=C(c1ccccc1Cl)c1cnc(N3CCOCC3)cc1N2	CYSLTR1 (Homo sapiens, UniProt Q9Y271)	cell-free assay		10 µM	inhibition	17%
CC(C)CC(=O)Nc1ccc(C2CCCCC2)cc1		liver microsome stability	human liver microsomes	1 µM, without NADPH	hepatic clearance	9.7 mL/min/kg
C/C=C(/C)C(=O)O[C@@H]1C=C(C)CC[C@]2(O)[C@@H](C(C)C)CC(=O)[C@]12C	PTGS2	enzyme activity, inhibitor		0.49 µg/mL	inhibition	0%

Repeated from above:
Structure (SMILES)	target or system	test	test system	conditions	measurement	result
O=C(CSc1nnc2c(n1)CCCC2)c1ccc(N2CCCC2=O)cc1	USP5	enzyme activity, inhibitor		17 µM	inhibition	85%
O=C1CO[C@H](CNC(=O)C2(c3ccc(Cl)cc3)CC2)CN1C1Cc2ccccc2C1	CXCR3 (Homo sapiens, UniProt P49682)	β-arrestin recruitment, antagonist		1 µM	inhibition	-4%
CC(=O)c1ccc(NC(=O)CN2CCC(c3nc(-c4cccc(F)c4)no3)CC2)cc1	DRD3 (Homo sapiens, UniProt P35462)	enzyme activity, inhibitor		10 µM	inhibition	16.7%
COc1ccc(C2CC(Nc3ccc(-c4ccc(NC5=NOC(c6ccc(OC)cc6)C5)cc4)cc3)=NO2)cc1 (centres unmarked)	cyclooxygenase, rabbit		distal colon mucosa microsomes	10 µM	inhibition	79%
CN(C)C/C=C/C(=O)Nc1ccc2nc(NCCCCCN(C)C)nc(NCCCCCCN(C)C)c2c1	SUV39H2 (Homo sapiens, UniProt Q9H5I1)	enzyme activity, inhibitor, radiometric		50 µM	inhibition	19%
